Assay results gathered from unrelated publications.
A part holds a random share of what one study measured. Substitutions count along the parent as printed.

Block 1
Target: Sal-like protein 4, full length isoform B (SALL4, Homo sapiens, UniProt Q9UJQ4-2, residues 1-616)
Technique: universal PBM
Molecule type: double-stranded DNA, one strand shown
Matrix: in vitro
Tested at: not given
Setting: 8-mer, flanks averaged, mean of replicates
Direction: higher = stronger binding
| Oligonucleotide | E-score |
| --- | --- |
| AACTCGCA | 0.0251 |
| TGCACGAA | 0.167 |
| GTCCAGAA | -0.0331 |
| GCTTGAAC | 0.0456 |
| CACCCGGA | -0.285 |
| CCGTGTGC | -0.285 |
| AATCCCAG | -0.0729 |
| AGTCCACG | -0.203 |
| AGCGCGAC | -0.223 |
| CTCTCGAA | -0.0369 |
| AGGCGCAT | -0.128 |
| ACCATTAT | 0.112 |
| CCTTTTTC | -0.0236 |
| ACGGAAAC | -0.0708 |
| CCACGCTA | -0.0182 |
| GCGTCTCA | -0.29 |
| AATACAAA | 0.371 |
| CCTGCGGC | -0.389 |

Block 2
Target: CCNB3, cyclin fold, Cln2 fusion (human)
Technique: yeast growth competition, sequencing
Matrix: yeast
Setting: strong parent motif
Reference: not given
Direction: higher = stronger binding
Parent: SCAPER docking peptide (human); SNARRSLNFGGST
| Variant | normalised enrichment score |
| --- | --- |
| SNARRSDNFGGST [L7D] | 0.745 |
| SNIRRSLNFGGST [A3I] | 0.937 |
| SNARRSYNFGGST [L7Y] | 0.0635 |
| SNASRSLNFGGST [R4S] | -0.12 |
| SNARRSLNFYGST [G10Y] | 0.911 |
| SFARRSLNFGGST [N2F] | 2.28 |
| SNARRSLNFGGPT [S12P] | 2.21 |
| SDARRSLNFGGST [N2D] | 1.47 |
| SNARRSTNFGGST [L7T] | 0.11 |

Block 3
Target: ABI1, truncated, D143A, DHFR fusion (Arabidopsis thaliana)
Technique: DHFR PCA, deep sequencing
Matrix: yeast
Setting: methotrexate growth selection, single substitutions
Together with: (+)-ABA 4.8 µM
Reference: wild-type fitted maximum
Direction: higher = stronger binding
Parent: PYL1, truncated, DHFR fusion (Arabidopsis thaliana); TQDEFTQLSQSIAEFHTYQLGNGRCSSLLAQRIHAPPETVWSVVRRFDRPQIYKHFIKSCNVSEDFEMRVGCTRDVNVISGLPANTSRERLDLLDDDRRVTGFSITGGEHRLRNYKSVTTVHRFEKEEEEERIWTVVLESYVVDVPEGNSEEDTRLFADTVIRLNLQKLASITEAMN
| Variant | relative binding score |
| --- | --- |
| R24G | 16% |
| F15L | 29.7% |
| E14Y | 9.03% |
| D65K | 65.4% |
| E4T | 68.2% |
| L28D | -9.81% |
| P50N | -1.7% |
| F124W | 85.5% |
| E125A | 78.8% |
| T160Q | 10.9% |
| V78C | 61.4% |
| Q31F | -3.58% |
| G102K | 11.4% |
| C60Q | 12.2% |
| V44Q | -10.1% |
| V145T | 33.2% |
| V76H | 1.61% |
| R90D | -3.23% |
| E4H | 62.7% |
| T173K | -6.92% |

Block 4
Target: RING finger protein unkempt homolog, zinc fingers 1-6, GST-SBP tag (UNK, Homo sapiens, UniProt Q9C0B0, residues 30-357)
UniProt Q9C0B0, sequence (30-357, looked up): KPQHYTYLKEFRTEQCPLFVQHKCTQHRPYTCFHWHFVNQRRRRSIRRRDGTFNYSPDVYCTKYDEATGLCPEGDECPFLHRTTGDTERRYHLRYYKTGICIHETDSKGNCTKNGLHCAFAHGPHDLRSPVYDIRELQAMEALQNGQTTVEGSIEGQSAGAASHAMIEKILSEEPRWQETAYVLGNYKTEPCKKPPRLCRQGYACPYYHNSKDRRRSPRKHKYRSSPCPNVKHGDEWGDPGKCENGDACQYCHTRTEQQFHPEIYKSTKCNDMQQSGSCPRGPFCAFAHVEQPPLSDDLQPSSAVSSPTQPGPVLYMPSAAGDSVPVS
Technique: RNA Bind-n-Seq
Molecule type: RNA
Matrix: in vitro
Tested at: not given
Setting: RNA with constant flanks, human and mouse sites, ends assumed
Reference: input RNA pool
Direction: higher = stronger binding
Constant ends, left off below: GGGAGUUCUACAGUCCGACGAUC … CAACAGAGGAUUGAGCAUCA
| Oligonucleotide | bound/input enrichment [ratio] |
| --- | --- |
| AGUUACCGGCUACCCAAGGACUUUGUAGACCUCUCUACUGGGGAGGACGCUCACAAGCUAAUAGACUUCCUUAAGCUGAAGAGAAAUCAGCAGGAGGACGACUGAUGAGCGUACUGGAAC | 0.101 |
| CUGAAGUCUCUGCGGGAACUCAAUGUCCGAAGAAAUUACCUUAAGGUUUUACCACCAGAGCUAGUAGAUCUCCCCUUGGUAAAGUUUGACUUUUCCUGCAACAAGGUGCUGGUGAUCCCC | 0.336 |
| GAAGUAGAAGAUCCUGUGGAUUCUGAUGGUGAAGUCCUGGGCUUUGAAAAUCUCGUCUUUAGCAUUUUUGAAUUUGUCCAUGCUCUACUAGAAAAUAGCAAAUUCAAAAGCACUGUUAAG | 1.17 |
| AUGUAUGAAGAUGCCCAACUUCAGAUAUAUACUUUAAUGCACAGAGAUUCUUUUCCAAGGUUUUUGAACUCUCAAAUUUAUAAGUCAUUUGUUGAAAGUACUGCUGGCUCUUCUUCUGAA | 0.594 |
| GUCCCGUUUGACUUUACACAUAAAAAACAAUCAGGUGGUGCAGGCCAGUAUGGAAAAGUAAUAGGUGUCCUGGAGCCUCUGGACCCAGAGGACUACACUAAAUUGGAAUUUUCAGAUGAA | 0.346 |
| UGGCAGAUCUUUAAAACUUCAGCAACCAAAGGCACUGGCCUUGAUGAGGCAAUGGAAUGGUUAGUUGAAACCCUGAAAAGCAGACAGUGAGCCCAUUCACGUCAGCGCCUGUGAGCCAAC | 0.158 |

Block 5
Target: Fragile X messenger ribonucleoprotein 1, C-terminal low-complexity region (Fmr1, Mus musculus, UniProt P35922)
Technique: RNA Bind-n-Seq
Molecule type: RNA
Matrix: in vitro
Tested at: 200 nM
Setting: whole 134-nt RNA, ends assumed
Together with: 150 mM KCl
Reference: input library
Direction: higher = stronger binding
Constant ends, left off below: GGGAGUUCUACAGUCCGACGAUC … UGGAAUUCUCGGGUGUCAAGG
| Oligonucleotide | log2 enrichment |
| --- | --- |
| UUUGUAGAGCAGCCCGACGGCCAUGGAGGCUGAAGAGACGAUGGAAUGCCUUCAGGAGUUCCCUGAACAUCAUAAAAUGAUCCUCGACCG | -0.635 |
| CCUCAAGUCCUGUGCUACACAUCGUAUGUACCGAAUCGGGAGGGAGGGUGGGAAAGUAUUAUGUUACGCCGUUCGGAUCUGCACUUCCAG | 1.2 |
| AGUCCUGUGCUACACAUCGUAUGUACCGAAUCGGCCCCCGGGCCCCCGGGCCCCCGGGAAAGUAUUAUGUUACGCCGUUCGGAUCUGCAC | -0.755 |
| CAAGUCCUGUGCUACACAUCGUAUGUACCGAAUCGGAAAAGGAAAAGGGAAAAGGGAAAGUAUUAUGUUACGCCGUUCGGAUCUGCACUU | -0.861 |
| CACAGACAACACGCACCCACACAGACACAGAGGGAAGGGGUUGGGAUGGGGACAGGGUGCACAGCAGGGCGGGGUAGGACCCCAGCCAAA | 1.3 |

Excerpt of the above (block 3):
| Variant | relative binding score |
| --- | --- |
| R90D | -3.23% |
| L28D | -9.81% |
| T160Q | 10.9% |
| Q31F | -3.58% |
| V78C | 61.4% |
